Results pooled from the literature.
Several values in a cell are separate wells, animals, samples, runs or records. ± gives the spread as reported.
Sequence of UniProt P10635 (whole entry, looked up): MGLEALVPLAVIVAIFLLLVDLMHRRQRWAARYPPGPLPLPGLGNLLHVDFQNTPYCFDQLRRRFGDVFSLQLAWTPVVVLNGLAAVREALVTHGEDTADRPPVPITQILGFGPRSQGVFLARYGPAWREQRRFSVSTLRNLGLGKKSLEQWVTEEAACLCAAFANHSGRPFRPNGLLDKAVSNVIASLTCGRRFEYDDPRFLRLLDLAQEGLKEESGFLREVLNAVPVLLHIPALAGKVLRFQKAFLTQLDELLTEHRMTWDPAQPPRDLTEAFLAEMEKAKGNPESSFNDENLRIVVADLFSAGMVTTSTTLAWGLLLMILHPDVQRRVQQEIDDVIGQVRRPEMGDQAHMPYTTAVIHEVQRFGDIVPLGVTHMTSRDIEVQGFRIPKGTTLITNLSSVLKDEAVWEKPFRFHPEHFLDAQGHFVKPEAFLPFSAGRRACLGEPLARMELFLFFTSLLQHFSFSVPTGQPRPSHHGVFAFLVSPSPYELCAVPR

Under “recovery of radioactivity per interval”, `Cc1cc(-c2ccc(C(=O)[C@@H]3CCCC[C@H]3C(=O)Nc3cnn4c3C(=O)NCC4)cc2)[nH]n1` is recorded as 2.72% (human, faeces; oral, 200 mg, 96-120 h; baseline: dose).
With `CC(C)n1ncc2c(C(=O)NCCN(C)C)cc(C3CC3)nc21` the scaled CLint was 258 mL/min/kg (metabolic stability; mouse, liver microsomes).
`CC(C)OCCOCc1ccc(OCC(O)CN(N=O)C(C)C)cc1` (stereo not shown) — result for “revertant fold increase”: 1 fold (Salmonella typhimurium; Ames test; TA98; 15.8 µg/plate, 30 % rat S9; baseline: solvent control).
Under “intact radiolabelled complex”, `O=C([O-])CN1CCN(CC(=O)[O-])CCN(CC(CCCc2ccccc2[N+](=O)[O-])N(CC(=O)[O-])CC(=O)[O-])CC1.[177Lu+3]` (stereo not shown) is recorded as 100% (HPLC; human serum; 3 h, pH 7, 37 °C).
For `O=C(Nc1cnccc1-c1ccc([18F])nc1)c1ccnc(NC(=O)C2CC2)c1`, the SUV was 0.069 (ex vivo gamma counting; GSK-3β transgenic mice, early-stage, cerebellum; intravenous, 120 min, mean, P-gp inhibitor pretreatment, with: tariquidar 15 mg/kg iv).
`O=C([O-])CN1CCN(CC(=O)[O-])CCN(C(CO)C(O)CO)CCN(CC(=O)[O-])CC1.[Dy+3]` (stereo not shown): “cumulative urinary excretion” 98.1% (ICP-MS; cynomolgus monkey; dose not given, 2 d, mass balance group; baseline: dose).
`Nc1ncc(-c2cc(-c3cnn(CC(F)(F)F)c3)ncc2F)nc1C(=O)NC1CNCC(F)C1` (stereo not shown) gave a remaining binding of 26% (MKNK1; KINOMEscan; 1 µM; baseline: DMSO control).
`Cc1c(Cc2cc(Cl)cc(OC(C)C(=O)O)c2)c2ccc(C(=O)NC(C)c3ccc(C(C)(C)C)cc3)cc2n1C(C)C` (stereo not shown) gave a half-life of 35.5 min (human liver microsomes).
`COCC1CN(C2CCN(c3cc(OC)c(Nc4ncc(Br)c(Nc5ccc6c(c5P(C)(C)=O)OCCO6)n4)cc3C)CC2)C1` — result for “patients with any treatment-related AE”: 81.5% (phase 1 trial; human, advanced EGFR-mutant NSCLC; oral, dose not given).
For `C=CC(=O)Nc1cccc(Cn2ncc3cnc(Nc4cnn(CCOC)c4)nc32)c1`, “percent of control” read 29% (FLT1 human; binding, KINOMEscan; 100 nM; lower = stronger binding).
For `Cc1ncsc1-c1ccc(C(C)NC(=O)C2CC(O)CN2C(=O)C(NC(=O)CCCCCCCCCCN2CCCC(Nc3ncc(Cl)c(Nc4ccccc4S(=O)(=O)C(C)C)n3)C2)C(C)(C)C)cc1` (stereo not shown), “log2 fold change” read -1.59 (22Rv1; RNA-seq, refers to: TFAP2C mRNA; concentration not given; baseline: DMSO).
`[11CH3]N1CCC(NC(=O)c2cc(-c3c(O)cc(O)cc3Oc3ccc([N+](=O)[O-])cc3)on2)CC1` has an SUV of 1.4 ± 0.1 (Wistar rat, female, healthy, spleen; intravenous, 18.5 MBq, 30 min).
Under “fluorescence quantum yield”, `CCCCN1C(=O)c2cccc3c(NCCCCCCN4CCOCC4)ccc(c23)C1=O` is recorded as 0.92 (acetonitrile).
For `CC(C)=CCC1=C([O-])C(=O)c2ccccc2C1=O.CC(C)=CCC1=C([O-])C(=O)c2ccccc2C1=O.[Zn+2].c1ccc(-c2ccnc3c2ccc2c(-c4ccccc4)ccnc23)cc1`, “Epa1 anodic peak potential” read 0.84 V (cyclic voltammetry; CH2Cl2, Bu4NPF6; 0.1 mM; baseline: Ag/AgCl sat. KOH).
For `CC(C)(O)c1ncc([S@](N)(=O)=NC(=O)Nc2c3c(cc4c2CCC4)CCC3)s1`, “subjects with TEAEs” read 25% (refers to: musculoskeletal, connective tissue; healthy human; oral, 25 mg, 14 days, ECT formulation, twice daily).
`CC1(C)OB(/C=C/COCC(=O)OCc2ccccc2)OC1(C)C` gave a release yield of 90% (1H NMR; pH 7.4, 25 °C, oxidative cleavage, with: H2O2).
`CC(C)C[C@@H]1NC(=O)[C@H](CCCCN)NC(=O)C(N)CCC=CCCCC(C(N)=O)NC(=O)[C@H](CCCCN)NC(=O)[C@H](CC(C)C)NC(=O)[C@H](CCCCN)NC(=O)C2CCCC=CCCC(NC(=O)[C@H](CCCCN)NC1=O)C(=O)N[C@@H](CCCCN)C(=O)N1CCC[C@@H]1C(=O)NCC(=O)N[C@@H](CCCCN)C(=O)N2` (stereo partly shown) gave a retention time of 13.8 min (RP-HPLC C18; hydrophobicity).
`CCCC[C@H](NC(C)=O)C(=O)N[C@@H](CO)C(=O)N[C@H](C(=O)N1CCC[C@H]1C(=O)N[C@]1(C)CCCCCCC=CCCC[C@@](C)(C(=O)N[C@@H](Cc2ccccc2)C(=O)N[C@@H](CCCCN)C(=O)N[C@@H](CCCNC(=N)N)C(=O)N[C@@H](CC(C)C)C(=O)N[C@@H](CCC(N)=O)C(N)=O)NC(=O)[C@H](CCCNC(=N)N)NC(=O)[C@H](CCCC)NC(=O)[C@H](CC(C)C)NC(=O)[C@H](CCCNC(=N)N)NC(=O)[C@H](CCCNC(=N)N)NC(=O)[C@H](CCCNC(=N)N)NC1=O)[C@@H](C)O`: “remaining intact peptide” 58.5% and 57.7% (proteinase K (Tritirachium album); proteolytic stability, LC-MS; 25 µM, 307.5 min, pH 7.4).
With `CNC(=O)C1CCCN(C(=O)C2CC3CCC2N3C(=O)[C@@H]2C[C@@H](O)CN2C(=O)NCc2cccc(Cl)c2F)C1` (mixture of isomers) the remaining activity was 95.9% (Cytochrome P450 2D6 (CYP2D6, Homo sapiens, UniProt P10635); enzyme activity, inhibitor, time-dependent inhibition; 1.85 µM, preincubated without NADPH; baseline: negative control).
With `CC(C)(C)n1ncc2c(=O)n(Cc3cccc(F)c3)c(NCc3ccc(F)cn3)nc21` the brain concentration was 26.7 ± 18.3 ng/g (C57BL/6J mice, male, brain; oral, 10 mg/kg, 1 h).
With `CC[C@H](C)[C@@H]1NC(=O)[C@H](Cc2ccc(O)cc2)NC(=O)CCCSC[C@@H](C(=O)N(CC(=O)N[C@@H](CC(C)C)C(=O)NCC(N)=O)Cc2ccc(F)cc2)NC(=O)[C@H](CC(N)=O)NC(=O)[C@H](CCC(N)=O)NC1=O` the drug-related headache was 33% (human; intranasal and intravenous, 400 µg intranasal and 20 µg intravenous).
`COC1CN([C@H]2CC[C@H]([C@@]3(C)Oc4c(Cl)cc(C(=O)NCc5c(SC)cc(C)[nH]c5=O)c(C)c4O3)CC2)C1`: “log2 fold change” 1.39 (RNA-seq, refers to: MDK mouse homolog; mouse, HT-1376 xenograft, whole blood; dose not given; baseline: vehicle).
